Published values pooled from the literature.
Each numbered part is a random draw from the data of one study; scales do not carry over between parts.

Study 1 — method: RNA Bind-n-Seq; form: RNA; medium: in vitro; concentration: 200 nM; setting: whole 134-nt RNA, ends assumed; added: 150 mM KCl; baseline: input library; reading: higher = stronger binding
Target: Fragile X messenger ribonucleoprotein 1, C-terminal low-complexity region (Fmr1, Mus musculus, UniProt P35922)
`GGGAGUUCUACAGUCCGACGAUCAAGUCCUGUGCUACACAUCGUAUGUACCGAAUCGGGUUUUUGGGUUUUUGGGAGGGAAAGUAUUAUGUUACGCCGUUCGGAUCUGCACUUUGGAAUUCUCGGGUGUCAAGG` gave a log2 enrichment of 0.716.
`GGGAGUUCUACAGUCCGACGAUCUCCUGUGCUACACAUCGUAUGUACCGAAUCGGGGUUUUUGGGGUUUUUGGGGUUUGGGGAAAGUAUUAUGUUACGCCGUUCGGAUCUGCAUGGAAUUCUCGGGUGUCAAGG` has a log2 enrichment of 0.882.
`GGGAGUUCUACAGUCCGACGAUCCACAGACAACACGCACCCACACAGACACAGAGGGAAGGGGUUGGGAUGGGAACAGGGUGCACAGCAGGGCGGGGUAGGACCCCAGCCCCUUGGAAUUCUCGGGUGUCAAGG` has a log2 enrichment of 1.34.
`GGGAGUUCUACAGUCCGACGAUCCACAGACAACACGCACCCACACAGACACAGAGGGAAGGGGUUGGGAUGGGGACAGGGAGCACAGCAGGGCGGGGUAGGACCCCAGCCCCUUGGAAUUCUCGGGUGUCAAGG` has a log2 enrichment of 1.19.
`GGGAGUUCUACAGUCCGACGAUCAAGUCCUGUGCUACACAUCGUAUGUACCGAAUCGGGUUUUUUUGGGUUUGGGAGGGAAAGUAUUAUGUUACGCCGUUCGGAUCUGCACUUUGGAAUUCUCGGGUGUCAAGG` has a log2 enrichment of 0.776.
The log2 enrichment of `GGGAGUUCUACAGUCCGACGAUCUCAAGUCCUGUGCUACACAUCGUAUGUACCGAAUCGGGAGGGUUUUUGGGUGGGAAAGUAUUAUGUUACGCCGUUCGGAUCUGCACUUCCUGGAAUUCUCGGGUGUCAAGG` is reported as 1.03.
`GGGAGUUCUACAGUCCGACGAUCCUGUGCUACACAUCGUAUGUACCGAAUCGGGGUUUUUUUGGUUUUUUUGGGUUUUUUUGGGAAAGUAUUAUGUUACGCCGUUCGGAUCUGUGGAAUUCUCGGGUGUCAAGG` gave a log2 enrichment of -0.816.
With `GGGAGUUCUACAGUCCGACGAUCCUCAAGUCCUGUGCUACACAUCGUAUGUACCGAAUCGGAAAGGAAAGGGAAAGGAAAGUAUUAUGUUACGCCGUUCGGAUCUGCACUUCCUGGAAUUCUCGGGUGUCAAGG` the log2 enrichment was -0.439.
For `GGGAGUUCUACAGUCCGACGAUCUCAAGUCCUGUGCUACACAUCGUAUGUACCGAAUCGGGAAGGGAAGGGAAGGGGAAAGUAUUAUGUUACGCCGUUCGGAUCUGCACUUCCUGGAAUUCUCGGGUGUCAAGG`, the log2 enrichment was 0.734.

Study 2 — method: competition protein-binding microarray; form: double-stranded DNA, one strand shown; medium: in vitro; concentration: 2 µM; added: Pho4 competitor, 0.05 µM; reading: higher = stronger binding
Target: Centromere-binding protein 1, full length, His-tagged (CBF1, Saccharomyces cerevisiae, UniProt P17106, residues 1-351)
UniProt P17106, sequence (whole entry, looked up): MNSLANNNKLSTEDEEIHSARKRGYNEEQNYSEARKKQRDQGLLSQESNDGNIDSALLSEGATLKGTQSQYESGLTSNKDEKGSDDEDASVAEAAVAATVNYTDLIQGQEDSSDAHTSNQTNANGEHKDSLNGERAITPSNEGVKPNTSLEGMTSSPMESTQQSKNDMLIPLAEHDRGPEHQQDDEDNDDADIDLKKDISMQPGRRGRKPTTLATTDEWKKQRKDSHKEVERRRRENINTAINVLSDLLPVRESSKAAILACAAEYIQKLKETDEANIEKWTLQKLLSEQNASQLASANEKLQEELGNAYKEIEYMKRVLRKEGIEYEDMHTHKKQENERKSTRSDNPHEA
Setting: whole 60-bp probe, lowest competitor level
With `TAACCTTAATTAATGCCCGTGCCAGGATGATTGCATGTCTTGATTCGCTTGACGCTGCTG` the fluorescence intensity was 97.7 a.u.
The fluorescence intensity of `CACTACGGTCTTAGATTCGTGCGATTTCCGGCTACCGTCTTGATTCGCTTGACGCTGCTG` is reported as 80.5 a.u.
With `CTTCTGTAAATTTGACCGGTGGGTGGACGCGCCCCGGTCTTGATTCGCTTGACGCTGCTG` the fluorescence intensity was 78.6 a.u.
`GTCTTGTCTCATTTGCACGTGTTTTTCCCCACTTCAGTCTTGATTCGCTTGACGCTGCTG` has a fluorescence intensity of 1620 a.u.
For `CGGGGTTAAGTTTGGTGTGTGGGTGGCTTGCAGCAGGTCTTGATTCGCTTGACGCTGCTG`, the fluorescence intensity was 74.8 a.u.
With `CATACCCAACCTTGTCACACCACTTAAGATATTTGTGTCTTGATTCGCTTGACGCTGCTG` the fluorescence intensity was 134 a.u.
The fluorescence intensity of `CATACCCAACCTTGTCCTGTGGGTGAAGATATTTGTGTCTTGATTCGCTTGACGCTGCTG` is reported as 62.7 a.u.
For `AAAGCGGTAATTTGAGAAGTGGGTGCAGATATCTATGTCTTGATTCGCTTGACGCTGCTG`, the fluorescence intensity was 76.1 a.u.
The fluorescence intensity of `CTTTCCCGATCTTGGCGCGTGGGTGTAGCACATTTGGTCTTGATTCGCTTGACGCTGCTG` is reported as 73.5 a.u.
The fluorescence intensity of `GATTCTCTCCTCGACCACGGGGGGCAACTCTGCCTGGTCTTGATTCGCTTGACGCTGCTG` is reported as 108 a.u.
`GTCTTGTCTCATTGCGGTGTGGGTGTCCCCACTTCAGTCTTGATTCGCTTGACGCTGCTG` gave a fluorescence intensity of 72.3 a.u.
`GGATTTGATTACCATCACGTGATGGAATGCTTTTGTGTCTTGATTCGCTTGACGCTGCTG` has a fluorescence intensity of 13000 a.u.
With `ACTCAGGTTATCAAGTTCGTGCAAACTATTCAAGAAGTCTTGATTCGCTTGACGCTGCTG` the fluorescence intensity was 74.5 a.u.
`GTCTTGTCTCATTGTCACTCGACTTTCCCCACTTCAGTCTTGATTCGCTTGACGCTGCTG` gave a fluorescence intensity of 78.2 a.u.

Study 3 — method: RNA Bind-n-Seq; form: RNA; medium: in vitro; concentration: 365 nM; baseline: no-protein control; reading: higher = stronger binding
Target: RNA binding protein fox-1 homolog 2, RRM domain, GST-SBP tag (RBFOX2, Homo sapiens, UniProt O43251-10, residues 100-194)
Setting: natural RNA segment, single round, ends assumed
Residues (chain): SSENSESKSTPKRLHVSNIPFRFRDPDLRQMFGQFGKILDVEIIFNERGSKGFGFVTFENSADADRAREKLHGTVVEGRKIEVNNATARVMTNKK
Under “RBNS enrichment (R)”, `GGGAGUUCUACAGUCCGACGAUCUUAUAAUUGCCAGAGCAGUAUUUUUUAUAUUGUAAACAGCGUGCGCAGCUCAGUGUGUGUCAGUGAUAAGAGUGUGGGAAGGCUUCAUCCUCUGCAGAGGCUGCUGAAGAUGGAAUUCUCGGGUGCCAA` is recorded as 0.244.
Under “RBNS enrichment (R)”, `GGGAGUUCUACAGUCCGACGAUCCUGUGCCCCCGAGCUGCCCCCACCCCCUCACAGGGUCCCUCAGAUUAUAGGUGCCCAGGCUGAGGUGAAGAGGCCUGGGGGCCCUGCCUUCCGGGCGCUCCUGGACCCUGUGGAAUUCUCGGGUGCCAA` is recorded as 0.455.
Under “RBNS enrichment (R)”, `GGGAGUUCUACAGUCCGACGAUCCUCAUAAUUCUUAACACCUGGCAUUUCCAUUUCUAAAGAUGGACAGGCCCUUUGGCGUGGUACCAACCAGAUAAUGACUGCAUCAGGAUGAAAGCUGCUGAACUCGGCAUUGGAAUUCUCGGGUGCCAA` is recorded as 0.272.
`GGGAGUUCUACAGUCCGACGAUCUGAGAAACCAUGAGGUUUCUUUGUAUUAAAAUUUGAAAUAAAUUUCUACUUAUCUUUUGGUAUUGGAUCUUGCCAGUCGUUUGCUGUUGCAUUCUUUUAAGGAAUCGGACUGGAAUUCUCGGGUGCCAA` — result for “RBNS enrichment (R)”: 0.771.
For `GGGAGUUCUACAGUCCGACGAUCCGCUGGUUUUGUUGUCUACGGGGAGCCCCAGGAUUCAGCUGUGGGUCUCUUUGAGUAUCUGGAAAUCCCUGUCAUCUGCUGUCAUUGUGAGCAAGAAUUGCCCAGCAUUUUGGAAUUCUCGGGUGCCAA`, “RBNS enrichment (R)” read 1.29.
`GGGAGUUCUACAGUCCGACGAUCUGACAGUUUUUCACAUUUUGCUCACCCGGGGCACCCGUGGUCUGUGCUUGCUCUGACUCCUUGUUGCAGGGCAUAAAUGUGCCCCCCCCUCCACGCGCUGAUCGAUACUCUGGAAUUCUCGGGUGCCAA`: “RBNS enrichment (R)” 0.862.
For `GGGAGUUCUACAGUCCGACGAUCUAUCCUAUAUGUAUUCCUUUCUAAACUGCUACUCAUGAAUGAGGAAAGUCUGAUGCUAAGAUACUGCCUGCACUGGAAUGUUAAACACUAAAUAUAUAACAAGCUGUGUUUGGAAUUCUCGGGUGCCAA`, “RBNS enrichment (R)” read 1.44.
`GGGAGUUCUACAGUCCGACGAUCGGCUGGAAAAGGCCGUUUGCCUCACACAUUGUAACCUGCCUUGGCUAGAAAAUGCUUUUAAUGUCUCAACUCUCUCUUUUCUGUGUCAUGUUUUGGUAGGAAAUCUUUAAUGGAAUUCUCGGGUGCCAA`: “RBNS enrichment (R)” 0.388.

Study 4 — method: universal PBM; form: double-stranded DNA, one strand shown; medium: in vitro; concentration: not given; reading: higher = stronger binding
Target: Sal-like protein 4, full length isoform B (SALL4, Homo sapiens, UniProt Q9UJQ4-2, residues 1-616)
Setting: 8-mer, flanks averaged, mean of replicates
For `CTTGTGCA`, the E-score was -0.026.
`ACAGATTG` gave an E-score of -0.00523.
The E-score of `GAGAATGA` is reported as 0.0901.
For `AGACAAGG`, the E-score was -0.162.
With `CCACGACA` the E-score was -0.0867.
`GAATTGTC` has an E-score of 0.0394.
`CAGGGTGG` gave an E-score of -0.0708.
`AGGGAATA` has an E-score of 0.147.
For `AACCAAGA`, the E-score was 0.125.
The E-score of `AGAATTAA` is reported as 0.196.
`GTAAAGAA` gave an E-score of 0.144.
For `TCACCTCA`, the E-score was -0.0824.
The E-score of `CACTAATC` is reported as 0.0778.
The E-score of `GAACTTAC` is reported as 0.0538.
For `AAACATAG`, the E-score was 0.191.
`GCGCCACC` has an E-score of -0.346.
`AATCCAAG` gave an E-score of 0.046.
`ATGGGACA` gave an E-score of -0.145.
The E-score of `AGAGCGCC` is reported as -0.24.
With `CCGGCTAG` the E-score was -0.309.
The E-score of `ACACAGCC` is reported as -0.2.

Study 5 — method: protein binding microarray; form: double-stranded DNA, one strand shown; medium: in vitro; concentration: not given; baseline: not given; reading: higher = stronger binding
Target: Histone acetyltransferase KAT6A, winged helix 1, GST fusion (KAT6A, Homo sapiens, UniProt Q92794, residues 1-85)
Setting: 8-mer, flanks averaged, mean of 2 arrays, mostly near background
Residues (chain): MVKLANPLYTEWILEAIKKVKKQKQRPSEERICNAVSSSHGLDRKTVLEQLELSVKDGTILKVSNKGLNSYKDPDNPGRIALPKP
The E-score of `ATGCTCGG` is reported as -0.0338.
`CCCCAGGG` gave an E-score of -0.0999.
`ATAGGTGG` gave an E-score of -0.186.
`CAGGTTAA` has an E-score of -0.0938.
With `CACGTCCA` the E-score was -0.129.
For `GTATTGAA`, the E-score was -0.106.
`CAAATGAC` gave an E-score of -0.16.
For `AATAACTG`, the E-score was -0.187.
The E-score of `AGCACCAA` is reported as -0.187.
With `GAACCCCA` the E-score was -0.172.
With `GTACGGCA` the E-score was 0.391.
`CCAAGGCG` has an E-score of 0.259.
With `CGGGGTGC` the E-score was 0.299.
For `CTGTTAAG`, the E-score was -0.158.
For `ACGATTGA`, the E-score was -0.123.
The E-score of `ACAGTACC` is reported as 0.0391.
`TATGGCAA` has an E-score of 0.0255.
For `GCAAGACC`, the E-score was -0.0238.
